# Measurements from different studies.
# Numbered parts are unrelated; each lists some results of a single study. Substitutions count along the parent as printed.
# Sequence of UniProt P49760 (whole entry, looked up): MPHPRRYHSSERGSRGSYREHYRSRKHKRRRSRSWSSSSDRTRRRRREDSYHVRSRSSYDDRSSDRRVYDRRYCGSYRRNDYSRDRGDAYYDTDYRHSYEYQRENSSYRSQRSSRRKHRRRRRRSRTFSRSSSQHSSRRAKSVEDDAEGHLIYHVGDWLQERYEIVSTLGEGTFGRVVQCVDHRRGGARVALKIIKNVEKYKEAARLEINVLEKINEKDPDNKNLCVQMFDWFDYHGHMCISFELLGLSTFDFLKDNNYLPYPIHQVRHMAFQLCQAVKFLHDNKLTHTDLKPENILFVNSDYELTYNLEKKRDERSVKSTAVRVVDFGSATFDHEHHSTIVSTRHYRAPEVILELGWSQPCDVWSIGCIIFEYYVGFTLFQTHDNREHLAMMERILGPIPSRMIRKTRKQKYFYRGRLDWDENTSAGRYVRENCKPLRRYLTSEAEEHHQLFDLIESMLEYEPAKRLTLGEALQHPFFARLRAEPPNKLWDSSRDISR
# Sequence of UniProt P0C1S8 (whole entry, looked up): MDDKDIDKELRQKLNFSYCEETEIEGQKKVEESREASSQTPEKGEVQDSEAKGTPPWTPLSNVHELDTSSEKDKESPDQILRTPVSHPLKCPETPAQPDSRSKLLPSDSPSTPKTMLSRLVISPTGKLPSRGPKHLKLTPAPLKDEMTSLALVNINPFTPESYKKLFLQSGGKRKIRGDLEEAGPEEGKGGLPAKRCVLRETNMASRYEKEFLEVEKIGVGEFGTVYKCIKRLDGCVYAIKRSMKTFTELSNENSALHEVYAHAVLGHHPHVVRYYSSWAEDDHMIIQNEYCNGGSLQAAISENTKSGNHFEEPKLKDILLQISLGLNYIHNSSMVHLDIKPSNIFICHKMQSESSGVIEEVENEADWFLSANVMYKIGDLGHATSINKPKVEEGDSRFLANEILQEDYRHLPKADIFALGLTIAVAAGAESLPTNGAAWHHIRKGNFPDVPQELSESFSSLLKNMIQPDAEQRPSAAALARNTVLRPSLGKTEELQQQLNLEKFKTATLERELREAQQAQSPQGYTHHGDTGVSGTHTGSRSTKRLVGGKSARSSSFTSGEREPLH
# Sequence of UniProt Q14012 (whole entry, looked up): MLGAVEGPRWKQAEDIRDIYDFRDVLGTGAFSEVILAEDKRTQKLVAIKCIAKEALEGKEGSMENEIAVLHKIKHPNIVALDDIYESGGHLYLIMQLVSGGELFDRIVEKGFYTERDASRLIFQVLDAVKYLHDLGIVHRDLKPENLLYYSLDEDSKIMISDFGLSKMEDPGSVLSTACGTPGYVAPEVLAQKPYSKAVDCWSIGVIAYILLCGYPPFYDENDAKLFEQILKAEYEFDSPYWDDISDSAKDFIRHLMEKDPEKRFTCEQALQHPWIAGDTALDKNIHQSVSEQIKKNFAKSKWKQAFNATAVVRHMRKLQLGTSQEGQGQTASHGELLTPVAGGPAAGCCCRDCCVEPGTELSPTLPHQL
# Sequence of UniProt Q96GD4 (whole entry, looked up): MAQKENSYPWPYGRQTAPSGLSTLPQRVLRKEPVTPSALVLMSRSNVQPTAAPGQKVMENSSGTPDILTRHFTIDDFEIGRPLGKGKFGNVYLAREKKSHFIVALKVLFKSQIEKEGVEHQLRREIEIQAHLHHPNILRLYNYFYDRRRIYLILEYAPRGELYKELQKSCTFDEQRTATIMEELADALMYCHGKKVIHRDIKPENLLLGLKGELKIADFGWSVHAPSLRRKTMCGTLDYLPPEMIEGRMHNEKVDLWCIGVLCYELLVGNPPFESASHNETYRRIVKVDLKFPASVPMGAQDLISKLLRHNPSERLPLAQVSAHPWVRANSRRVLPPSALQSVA
# Sequence of UniProt O43293 (whole entry, looked up): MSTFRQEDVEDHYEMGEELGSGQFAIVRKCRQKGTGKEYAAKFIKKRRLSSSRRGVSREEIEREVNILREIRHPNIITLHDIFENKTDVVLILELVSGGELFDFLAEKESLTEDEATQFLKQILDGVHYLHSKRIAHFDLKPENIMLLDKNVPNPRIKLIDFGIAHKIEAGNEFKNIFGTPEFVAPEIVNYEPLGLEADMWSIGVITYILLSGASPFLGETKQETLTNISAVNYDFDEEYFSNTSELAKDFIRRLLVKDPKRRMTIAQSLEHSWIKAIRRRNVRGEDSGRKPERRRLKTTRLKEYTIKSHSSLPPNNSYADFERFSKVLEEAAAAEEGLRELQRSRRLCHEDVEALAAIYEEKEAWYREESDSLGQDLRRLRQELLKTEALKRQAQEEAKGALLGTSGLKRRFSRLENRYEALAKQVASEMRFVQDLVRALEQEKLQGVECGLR
# Sequence of UniProt Q9BUB5 (whole entry, looked up): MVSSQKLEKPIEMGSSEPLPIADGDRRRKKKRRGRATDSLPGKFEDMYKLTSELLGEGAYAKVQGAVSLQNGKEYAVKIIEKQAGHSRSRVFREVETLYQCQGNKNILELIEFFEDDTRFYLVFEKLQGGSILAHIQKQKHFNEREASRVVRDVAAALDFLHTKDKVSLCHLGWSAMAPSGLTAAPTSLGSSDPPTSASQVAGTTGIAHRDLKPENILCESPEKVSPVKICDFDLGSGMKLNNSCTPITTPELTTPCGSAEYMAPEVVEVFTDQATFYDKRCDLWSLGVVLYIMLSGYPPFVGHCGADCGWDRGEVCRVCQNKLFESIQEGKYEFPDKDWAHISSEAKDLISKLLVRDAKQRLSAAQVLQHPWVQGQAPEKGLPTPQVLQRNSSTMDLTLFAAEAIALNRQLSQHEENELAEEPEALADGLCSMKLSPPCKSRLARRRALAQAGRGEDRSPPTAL
# Sequence of UniProt P51451 (whole entry, looked up): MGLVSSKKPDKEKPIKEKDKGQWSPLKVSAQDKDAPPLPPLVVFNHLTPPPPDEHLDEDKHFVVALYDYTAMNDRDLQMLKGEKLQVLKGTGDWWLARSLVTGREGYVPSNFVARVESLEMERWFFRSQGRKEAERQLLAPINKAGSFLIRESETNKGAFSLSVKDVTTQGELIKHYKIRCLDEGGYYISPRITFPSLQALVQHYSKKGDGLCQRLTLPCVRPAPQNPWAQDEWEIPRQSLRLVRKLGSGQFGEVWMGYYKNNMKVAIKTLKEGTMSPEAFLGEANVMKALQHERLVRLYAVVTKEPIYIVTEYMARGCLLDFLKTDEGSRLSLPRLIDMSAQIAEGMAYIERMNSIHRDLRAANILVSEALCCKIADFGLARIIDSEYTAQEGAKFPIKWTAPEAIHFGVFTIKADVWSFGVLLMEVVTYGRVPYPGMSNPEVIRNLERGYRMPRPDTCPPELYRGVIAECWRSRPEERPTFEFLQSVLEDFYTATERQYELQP
# Sequence of UniProt P09619 (whole entry, looked up): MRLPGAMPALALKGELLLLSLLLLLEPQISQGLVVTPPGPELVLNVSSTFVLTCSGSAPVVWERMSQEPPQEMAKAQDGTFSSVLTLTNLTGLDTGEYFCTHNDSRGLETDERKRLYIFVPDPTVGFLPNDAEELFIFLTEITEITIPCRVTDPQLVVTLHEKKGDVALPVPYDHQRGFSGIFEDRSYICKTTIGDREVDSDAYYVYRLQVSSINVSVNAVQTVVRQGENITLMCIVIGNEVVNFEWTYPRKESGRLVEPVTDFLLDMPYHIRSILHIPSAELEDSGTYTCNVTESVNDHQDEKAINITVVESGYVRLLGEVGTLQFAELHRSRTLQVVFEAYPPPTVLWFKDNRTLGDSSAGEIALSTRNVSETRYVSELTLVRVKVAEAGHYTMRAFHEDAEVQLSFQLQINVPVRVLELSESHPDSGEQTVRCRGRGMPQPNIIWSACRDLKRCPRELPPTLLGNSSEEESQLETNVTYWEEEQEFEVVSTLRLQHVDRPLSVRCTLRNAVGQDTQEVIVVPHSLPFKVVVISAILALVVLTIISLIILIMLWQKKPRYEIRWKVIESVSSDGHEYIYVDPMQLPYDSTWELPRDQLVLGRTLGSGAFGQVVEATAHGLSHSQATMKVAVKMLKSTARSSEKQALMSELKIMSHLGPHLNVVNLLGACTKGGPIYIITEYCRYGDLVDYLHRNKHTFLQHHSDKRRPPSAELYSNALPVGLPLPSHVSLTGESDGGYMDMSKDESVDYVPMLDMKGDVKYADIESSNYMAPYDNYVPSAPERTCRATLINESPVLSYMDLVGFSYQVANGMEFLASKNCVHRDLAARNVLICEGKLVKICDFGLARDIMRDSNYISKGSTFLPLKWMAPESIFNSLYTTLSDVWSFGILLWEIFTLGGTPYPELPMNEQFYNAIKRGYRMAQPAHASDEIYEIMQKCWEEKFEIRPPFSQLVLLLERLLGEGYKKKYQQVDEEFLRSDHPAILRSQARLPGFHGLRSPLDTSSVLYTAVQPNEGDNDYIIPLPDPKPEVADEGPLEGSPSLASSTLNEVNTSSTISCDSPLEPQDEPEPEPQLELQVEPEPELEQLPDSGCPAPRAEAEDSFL
# Sequence of UniProt Q8WU08 (whole entry, looked up): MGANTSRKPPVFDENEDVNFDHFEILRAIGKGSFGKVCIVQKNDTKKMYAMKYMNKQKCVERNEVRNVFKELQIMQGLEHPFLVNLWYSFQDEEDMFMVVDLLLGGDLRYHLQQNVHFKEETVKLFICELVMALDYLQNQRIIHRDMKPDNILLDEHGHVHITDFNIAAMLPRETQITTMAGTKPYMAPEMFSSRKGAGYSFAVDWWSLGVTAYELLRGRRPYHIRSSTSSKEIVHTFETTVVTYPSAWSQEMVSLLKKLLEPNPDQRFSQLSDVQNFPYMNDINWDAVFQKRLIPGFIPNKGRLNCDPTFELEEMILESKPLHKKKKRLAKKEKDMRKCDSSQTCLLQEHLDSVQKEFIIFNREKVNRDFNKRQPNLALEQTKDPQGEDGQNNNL

# Set 1
# Structure (SMILES): NS(=O)(=O)c1cc(NC(=O)C2(c3ccccc3Cl)CC2)ccc1Oc1cccc(Cl)c1
# Read-out: cell-free assay
# Technique: competition with immobilised ligand
# Concentration: 1 µM
target,remaining binding [%]
"Tyrosine-protein kinase ABL1, phosphorylated (ABL1, Homo sapiens, UniProt P00519)",88
"Aurora kinase B (AURKB, Homo sapiens, UniProt Q96GD4)",84
"DAPK3 (Homo sapiens, UniProt O43293)",100
"FLT3 (Homo sapiens, UniProt P36888, ITD)",100
"STK32A (Homo sapiens, UniProt Q8WU08)",90
"PAK1 (Homo sapiens, UniProt Q13153)",79
"Tyrosine-protein kinase ABL1, phosphorylated (ABL1, Homo sapiens, UniProt P00519, Y253F)",69
"Cyclin-dependent kinase 4, with cyclin D3 (CDK4, Homo sapiens, UniProt P11802)",70
"WEE2 (Homo sapiens, UniProt P0C1S8)",74
"CLK2 (Homo sapiens, UniProt P49760)",97
"CAMK1 (Homo sapiens, UniProt Q14012)",100
"STK39 (Homo sapiens, UniProt Q9UEW8)",100
"EPHB2 (Homo sapiens, UniProt P29323)",74
"LYN (Homo sapiens, UniProt P07948)",83
"PIK3C3 (Homo sapiens, UniProt Q8NEB9)",89
"MKNK1 (Homo sapiens, UniProt Q9BUB5)",99
"BLK (Homo sapiens, UniProt P51451)",100
"FLT3 (Homo sapiens, UniProt P36888, D835V)",100
"PDGFRB (Homo sapiens, UniProt P09619)",90

# Set 2
# Target: CREB3L4, bZIP domain (human)
# Technique: DHFR protein complementation
# Matrix: yeast
# Setting: single substitutions, most at no-binding floor
# Reference: wild-type JUN-FOS pair
# Direction: higher = stronger binding
# Starting sequence: JUN, bZIP domain (human); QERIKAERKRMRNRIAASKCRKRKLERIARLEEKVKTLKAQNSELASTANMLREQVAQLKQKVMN; partner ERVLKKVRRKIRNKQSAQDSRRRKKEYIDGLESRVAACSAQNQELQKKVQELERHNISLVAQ
Substitution,binding fitness [natural log]
L38Q,-1.44
T37R,-1.38
L52T,-1.57
M51F,-1.5
R30P,-1.4
E44G,-1.53
S47Y,-1.26
Q55D,-1.5

# Set 3
# Compound: CC(=O)N[C@@H](Cc1c[nH]c2ccccc12)C(=O)N[C@@H](CCC(=O)C=[N+]=[N-])C(=O)OC(C)C
# Species: mouse, EL4 tumour-bearing
# Matrix: EL4 tumour
# Dose: dose not given
# Reference: vehicle
refers to,log2 fold change
gamma-glutamylvaline,-0.0498
sarcosine,-0.0154
proline,-0.195

# Set 4
# Target: Myc proto-oncogene protein, bHLH-zipper, MAX partner unstated (MYC, Homo sapiens, UniProt P01106, residues 368-449)
# Sequence of UniProt P01106 (368-449, looked up): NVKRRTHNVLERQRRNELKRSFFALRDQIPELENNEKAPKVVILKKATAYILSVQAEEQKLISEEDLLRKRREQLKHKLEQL
# Technique: protein-binding microarray
# Molecule type: double-stranded DNA, one strand shown
# Matrix: in vitro
# Concentration: not given
# Setting: k-mer, scored over probes, only values ≥0.25
# Direction: higher = stronger binding
Strand,E-score
CCCATGCC,0.376
TGGAGCCA,0.285
CATGCAGA,0.25
ATGCGCGG,0.268
CATGTATC,0.301
ATGCCACG,0.427
ATGACGTG,0.264
ATGTGGCA,0.273

# Other studies, line by line
Structure (SMILES),target or system,assay,test system,conditions,quantity,value
Cc1cnc(C2CC2)n1C1CCN(C(=O)c2ccoc2)CC1,,,"human, microsomes or S9","2 µM, 0.5 h",remaining compound,> 100%
CC(=O)O[C@@]12CO[C@@H]1C[C@H](O)[C@@]1(C)C(=O)[C@H](O)C3=C(C)[C@@H](OC(=O)[C@H](O)[C@@H](NC(=O)OC(C)(C)C)c4ccccc4)C[C@@](O)([C@@H](OC(=O)c4ccccc4)[C@H]21)C3(C)C,Sarcocystis neurona,parasite growth,,"10 µM, secondary screen",inhibition,50.1%
CN(C)S(=O)(=O)CCCS(=O)(=O)N(C)Cc1ccc(Br)cc1,,,"human, microsomes or S9","2 µM, 0.5 h",remaining compound,49.4%

# For quick reference, copied from above (set 1):
target,remaining binding [%]
"Cyclin-dependent kinase 4, with cyclin D3 (CDK4, Homo sapiens, UniProt P11802)",70
"WEE2 (Homo sapiens, UniProt P0C1S8)",74
"DAPK3 (Homo sapiens, UniProt O43293)",100
"PAK1 (Homo sapiens, UniProt Q13153)",79
"PDGFRB (Homo sapiens, UniProt P09619)",90
"PIK3C3 (Homo sapiens, UniProt Q8NEB9)",89
